Results from different studies.
Numbered parts are unrelated; each lists some results of a single study. Changes are numbered by the printed parent chain.

Sample 1 — technique: DHFR PCA, deep sequencing; sample: yeast; together with: (+)-ABA 0.032 µM; reference: wild-type fitted maximum; reading: higher = stronger binding; quantity: relative binding score
Target: ABI1, truncated, D143A, DHFR fusion (Arabidopsis thaliana)
Notes: methotrexate growth selection, single substitutions
Parent: PYL1, truncated, DHFR fusion (Arabidopsis thaliana); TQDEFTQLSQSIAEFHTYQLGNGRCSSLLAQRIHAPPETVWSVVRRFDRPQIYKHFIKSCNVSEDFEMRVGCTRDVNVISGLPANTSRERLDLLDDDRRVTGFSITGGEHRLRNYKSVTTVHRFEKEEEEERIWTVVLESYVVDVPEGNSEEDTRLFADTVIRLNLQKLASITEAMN; partner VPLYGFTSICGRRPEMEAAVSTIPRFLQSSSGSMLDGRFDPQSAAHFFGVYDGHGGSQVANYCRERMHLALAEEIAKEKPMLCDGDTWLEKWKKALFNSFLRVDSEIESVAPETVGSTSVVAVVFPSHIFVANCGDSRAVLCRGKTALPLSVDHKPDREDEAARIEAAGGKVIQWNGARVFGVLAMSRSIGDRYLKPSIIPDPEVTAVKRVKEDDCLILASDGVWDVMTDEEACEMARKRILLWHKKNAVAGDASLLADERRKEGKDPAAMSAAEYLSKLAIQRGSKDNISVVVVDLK
T101I: 77.5%
E147Q: 12.4%
S87P: 4.69%
V143D: 1.81%
A30T: 11.3%
S9A: 37.7%
D153R: -0.435%
E38A: 5.77%

Sample 2 — target: CCNE1, cyclin fold, Cln2 fusion (human); technique: yeast growth competition, sequencing; sample: yeast; notes: weak parent motif; reference: not given; reading: higher = stronger binding; quantity: normalised enrichment score
Parent: E2F8 docking peptide (human); FVPQRKLEVSTED
FVPQRKLEVSAED [T11A]: -0.394
FVPQRKAEVSTED [L7A]: 0.693
FVAQRKLEVSTED [P3A]: -0.142
FVPQRALEVSTED [K6A]: 0.413
FVPQKKLEFSTED [R5K V9F]: 0.36
FVPQAKLEVSTED [R5A]: -0.213
FVPQKKLEVSTED [R5K]: -0.0967
FVPQRKLEVSTEA [D13A]: -0.576

Sample 3 — technique: protein binding microarray; molecule type: double-stranded DNA, one strand shown; sample: in vitro; concentration: not given; reference: not given; reading: higher = stronger binding; quantity: E-score
Target: Histone acetyltransferase KAT6A, both winged helices, GST fusion (KAT6A, Homo sapiens, UniProt Q92794, residues 1-181)
Notes: 8-mer, flanks averaged, mean of 2 arrays, mostly near background
Target sequence (chain): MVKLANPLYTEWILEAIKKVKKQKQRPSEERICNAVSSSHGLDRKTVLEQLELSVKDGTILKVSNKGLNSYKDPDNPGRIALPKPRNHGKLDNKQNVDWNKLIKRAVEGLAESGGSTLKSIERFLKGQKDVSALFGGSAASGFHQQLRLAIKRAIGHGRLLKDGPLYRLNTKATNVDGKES
GCCCGTTA: 0.265
CATCGCGC: 0.317
ATGTCAGC: -0.0292
GCAGTCAC: -0.00814
CACGATCC: -0.0103
AAACCCAT: -0.101
GAATAGTA: -0.158
AAAGAGCT: -0.17
CCGTTTCG: 0.182
CAGTTGCA: -0.159
CTACAAAA: -0.0685

Single results of other studies
PhoQ, residues 284 288 289 292 302 303 NLALSC
fold induction (PhoP, residues 12 14 15 18 19 LHHSG (Escherichia coli, UniProt P23836); Sort-seq, refers to: YFP reporter; E. coli; PhoQ-PhoP variant library, together with: 10 µM Mg2+; reference: high Mg2+ state, higher = stronger signaling): 1.08

For quick reference, copied from above (sample 3):
GCAGTCAC: -0.00814
CACGATCC: -0.0103
AAACCCAT: -0.101
GAATAGTA: -0.158
